Published values of several laboratories.
Lines come from different studies, so protocols differ. Several values in a cell are separate wells, animals, samples, runs or records. ± gives the spread as reported.

| Structure (SMILES) | cell line | assay | test system | setting | how to read | measurement | value |
| --- | --- | --- | --- | --- | --- | --- | --- |
| COc1cc([C@@H]2O[C@@H](c3cc(OC)c(O[C@@H]4O[C@H](CO)[C@@H](O)[C@H](O)[C@H]4O)c(OC)c3)[C@H](CO)[C@H]2CO)cc(OC)c1O | human pre-adipocytes PCS-210-010 |  |  | 5 to 20 µM, 48 h |  | glycerol release | increased |
| O=C(C[Se]C(=O)c1cc2ccccc2[nH]1)Nc1cccc(C(F)(F)F)c1 | NCI60 ovarian subpanel | total growth inhibition, inhibitor |  | five-dose |  | mean TGI | 2950 nM |
| CNS(=O)(=O)Nc1nccc(Cc2c(C)c3ccc(Oc4ncccc4F)cc3oc2=O)c1F | SNU-1040 | cell viability, CellTiter-Glo |  | 7 days |  | IC50 | > 1000 nM |
| CN(C)Cc1nc(Nc2ccc(-c3cnc4cc(F)ccn34)c3c2C(=O)NC3)ccc1C1CCOC1 (stereo not drawn) | mouse BMDC with OT-1 T cells |  |  | dose not given, 5 days, together with: OVA | baseline: DMSO | T-cell proliferation | ≤ 2.5 fold |
| O=CCNCCOn1c(=O)n(OCCNCCO)c(=O)n(OCCNCCOn2c(=O)n(OCCNCCO)c(=O)n(OCCNCCO)c2=O)c1=O | A549 | cell growth or viability, MTT |  | 12.5 µg/mL, 48 h |  | viability | 46.9% |
| O=C(C[Se]C(=O)C12CC3CC(CC(C3)C1)C2)Nc1cccc(C(F)(F)F)c1 | NCI60 ovarian subpanel | cell growth |  | 10 µM, 48 h, one-dose |  | mean growth percent | -53.2% |
| COC(=O)c1cc(NC2=NC(=O)C(=Cc3ccc(C)cc3)S2)ccc1OC(C)=O | MCF7 | GC-MS, measured: 3-Aminoisobutyric acid |  | 1 µM | baseline: DMSO | metabolite level | 0.36 fold change |
| O=C(Nc1nnc2c1c(-c1ccc(Cl)cc1)nc1sc(=Cc3ccco3)c(=O)n12)c1ccccc1 (mixture of isomers) | SR | SRB |  | 10 µM, NCI60 single-dose screen | baseline: untreated | cell growth | 18.2% |
| CC(=O)Oc1ccccc1C(=O)[Se]CC(=O)Nc1cccc(C(F)(F)F)c1 | NCI60 ovarian subpanel | cell growth |  | 10 µM, 48 h, one-dose |  | mean growth percent | -25.5% |
| CC(C)c1ccc(N(C)c2ccc3c(c2)OCC[C@H]3CNc2cnccc2C(=O)O)cc1 | NCI-H1355 | cell growth or viability, ATP luminescence |  | 7 days |  | IC50 | 20.6 nM |
| COC(=O)c1cc(NC2=NC(=O)C(=Cc3ccc(N(C)C)cc3)S2)ccc1OC(C)=O | MCF7 | GC-MS, measured: Dodecanoic acid |  | 1 µM | baseline: DMSO | metabolite level | -0.44 fold change |
| Cn1ncc2cc(-c3cncc(Cl)c3N3CCC4(CCNC4=O)CC3)ccc21 | LS174T | gene expression, microarray, measured: GADD45G mRNA |  | concentration not given, 24 h | baseline: untreated cells | log2 fold change | -2.09 |
| Cc1nc(=S)[nH]c(C)c1/N=N/c1nnc(S)[nH]1 | Vero | cell viability, MTT |  | 0.625 µg/mL |  | inhibition | 12.2 ± 0.303% |
| CN(C)CCN1CCN(c2ccc3nc(-c4ccc5nc(-c6ccc(C(F)(F)F)cc6)[nH]c5c4)[nH]c3c2)CC1 | IGROV-1 | SRB |  | 10 µM, 48 h |  | growth percent | 78.7% |
| CO[C@@H]1[C@@H](OC(N)=O)[C@@H](O)[C@H](Oc2ccc3c(O)c(NC(=O)c4ccc(O)c(CC=C(C)C)c4)c(=O)oc3c2C)OC1(C)C | HCT-116 BRCA2 wild-type |  |  | 75 µM, replicate A | baseline: untreated | colony survival | 90.7% |
| CCN(C(=O)c1cc(F)ccc1Oc1nncnc1N1CCC2(C1)CN([C@H](CCCN(C)CCOC)C(C)C)C2)C(C)C | SF-295 |  | brain | 72 h |  | GI50 | > 10000 nM |
| CN1CCCNC(=O)c2cccc(c2)C(=O)NCCCN(C)CCCNc2cccc3c2C(=O)c2cccc(c2C3=O)NCCC1 | SAS | RNA-seq, measured: JRK mRNA |  | 1 µM, 6 h | baseline: untreated cells | log2 fold change | -0.953 |

| Structure (SMILES) | cell line | assay | test system | setting | how to read | measurement | value |
| --- | --- | --- | --- | --- | --- | --- | --- |
| CCCC(CCC)C(=O)OCc1cn(-c2cc3ccccc3oc2=O)nn1 | UACC-62 | NCI60 single-dose screen |  | 10 µM |  | growth percentage | 92.5% |
| C1=[N+]2CCCC[N+]3=Cc4ccc5[n]4[Au-]23[n]2c1ccc2-c1nc2ccccc2nc1-5.F[P-](F)(F)(F)(F)F | SR |  |  | NCI60 five-dose screen |  | TGI | 4 -log M |
| COc1ccccc1-c1ccncc1C(=O)Nc1nnc(OCc2ccc(Cl)cc2)s1 | MDA-MB-436 BRCA1-mutant | colony formation |  | 0.75 µM | higher = more survival | colony count | 13.5 and 12 and 12.5 |
| O=C(NCc1cc(F)cc(F)c1)[C@@]1(O)CCN(c2ccc3[nH]ccc3c2)C1=O | MAXF 1384 breast cancer cells | colony formation, soft agar clonogenic |  | concentration not given |  | efficacy | 50% |
| CC(=O)OC[C@H]1O[C@@H](n2cc(CSc3nc4ccccc4n3Cc3cn([C@@H]4O[C@H](COC(C)=O)[C@@H](OC(C)=O)C(OC(C)=O)[C@H]4OC(C)=O)nn3)nn2)[C@H](OC(C)=O)C(OC(C)=O)[C@@H]1OC(C)=O (stereo in doubt) | HEK293 | MTT |  | 7.81 ppm |  | cytotoxicity | -0.0465% |
| CC(C)Cc1ccc(C(C)C(=O)[Se]CC(=O)Nc2cccc(C(F)(F)F)c2)cc1 (stereo not drawn) | NCI60 ovarian subpanel | cell growth, inhibitor |  | five-dose |  | GI50 | 1920 nM |
| Cc1ncsc1-c1ccc(C(C)NC(=O)C2CC(O)CN2C(=O)C(NC(=O)CCCCCCCCCCN2CCCC(Nc3ncc(Cl)c(Nc4ccccc4S(=O)(=O)C(C)C)n3)C2)C(C)(C)C)cc1 (stereo not drawn) | 22Rv1 | RNA-seq, measured: LMLN mRNA |  | concentration not given | baseline: DMSO | log2 fold change | -1.46 |
| O=C(C[Se]C(=O)c1ccccc1Nc1cccc(C(F)(F)F)c1)Nc1cccc(C(F)(F)F)c1 | NCI60 ovarian subpanel | cell growth |  | 10 µM, 48 h, one-dose |  | mean growth percent | -90.2% |
| CCN(CC)CC(=O)Nc1cccc(-n2cc(-c3ccc4ccc(-c5cn(-c6cccc(NC(=O)CN(CC)CC)c6)nn5)cc4c3)nn2)c1 | RCC4 | PCR array, measured: TGFA |  | 5 x IC50, 6 h, normoxia | baseline: untreated | fold regulation | -1.29 fold |
| O=C1C(Cl)=C(Cl)C(=O)c2c(O)ccc(O)c21 | MOLT-3 | XTT |  |  | baseline: IC50 MRC-5 over IC50 MOLT-3 | selectivity index | 38.6 |
| CC[C@H](CO)Nc1nc(NCc2ccc(-c3ccccn3)cc2)c2ncn(C(C)C)c2n1 | MOLT-4 | tandem mass tag proteomics, measured: CCNK |  | 1 µM, 5 h | baseline: DMSO | log2 fold change | -2.43 |
| O=C(C[Se]C(=O)c1ccc2ccccc2n1)Nc1cccc(C(F)(F)F)c1 | NCI60 ovarian subpanel | cell growth, inhibitor |  | five-dose |  | GI50 | 2000 nM |
| CC(C)(C)c1cc(-c2ccc3cccnc3n2)nc(-c2ccc3cccnc3n2)c1.COc1ccncc1.[Cl-].[Cl-].[Ru+2].c1ccc2cc3nc4c5cccnc5c5ncccc5c4nc3cc2c1 | SK-MEL-28 | photocytotoxicity |  | light 633 nm, oxygen 18.5% |  | EC50 | 654 ± 13 nM |
| CCOc1cncc(-c2ccc(NC(=O)C3(c4ccnc(NS(=O)(=O)C5CC5)n4)CCOCC3)nc2)n1 | EM-2 | cell proliferation, CellTiter-Glo |  | 72 h |  | IC50 | 48 nM |
| COC1CN([C@H]2CC[C@H]([C@@]3(C)Oc4c(Cl)cc(C(=O)NCc5c(SC)cc(C)[nH]c5=O)c(C)c4O3)CC2)C1 | J82 | cell growth or viability, ATP luminescence |  | 18 days |  | GI50 | > 10000 nM |
| Cc1ccc([N+](=O)[O-])cc1S(=O)(=O)N(C)/N=C/c1cnc2ccc(Br)cn12 | HuT78 | Th2 pathway, NanoString IPA |  | 50 nM, 10 h | direction not given | activation z-score | -2.24 |

Repeated from above:
| Structure (SMILES) | cell line | assay | test system | setting | how to read | measurement | value |
| --- | --- | --- | --- | --- | --- | --- | --- |
| COC(=O)c1cc(NC2=NC(=O)C(=Cc3ccc(N(C)C)cc3)S2)ccc1OC(C)=O | MCF7 | GC-MS, measured: Dodecanoic acid |  | 1 µM | baseline: DMSO | metabolite level | -0.44 fold change |
| Cn1ncc2cc(-c3cncc(Cl)c3N3CCC4(CCNC4=O)CC3)ccc21 | LS174T | gene expression, microarray, measured: GADD45G mRNA |  | concentration not given, 24 h | baseline: untreated cells | log2 fold change | -2.09 |
| Cc1nc(=S)[nH]c(C)c1/N=N/c1nnc(S)[nH]1 | Vero | cell viability, MTT |  | 0.625 µg/mL |  | inhibition | 12.2 ± 0.303% |
| CN(C)CCN1CCN(c2ccc3nc(-c4ccc5nc(-c6ccc(C(F)(F)F)cc6)[nH]c5c4)[nH]c3c2)CC1 | IGROV-1 | SRB |  | 10 µM, 48 h |  | growth percent | 78.7% |
